# Published values pooled from the literature.
# A part holds a random share of what one study measured.

# Set 1
# Target: Ras GTPase-activating protein-binding protein 1, full length (G3BP1, Homo sapiens, UniProt Q13283)
# Sequence of UniProt Q13283 (whole entry, looked up): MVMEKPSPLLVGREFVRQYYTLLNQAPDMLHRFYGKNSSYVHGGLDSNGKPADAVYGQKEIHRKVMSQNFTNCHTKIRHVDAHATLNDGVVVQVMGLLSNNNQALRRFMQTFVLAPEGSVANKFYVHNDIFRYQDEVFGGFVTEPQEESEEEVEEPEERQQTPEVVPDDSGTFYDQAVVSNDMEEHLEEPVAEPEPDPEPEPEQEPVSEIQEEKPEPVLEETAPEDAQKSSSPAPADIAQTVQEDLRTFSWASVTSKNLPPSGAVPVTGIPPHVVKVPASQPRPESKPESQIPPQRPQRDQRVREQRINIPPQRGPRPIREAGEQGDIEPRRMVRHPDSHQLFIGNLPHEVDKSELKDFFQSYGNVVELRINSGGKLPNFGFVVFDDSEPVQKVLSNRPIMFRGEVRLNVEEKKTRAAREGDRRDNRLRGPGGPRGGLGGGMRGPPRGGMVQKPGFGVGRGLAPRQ
# Method: RNA Bind-n-Seq
# Molecule type: RNA
# Sample: in vitro
# Concentration: 200 nM
# Notes: whole 134-nt RNA, ends assumed
# With: 150 mM LiCl
# Reference: input library
# Reading: higher = stronger binding
# Each molecule: 7-deaza-guanosine replaces G
Strand,log2 enrichment
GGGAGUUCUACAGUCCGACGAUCAAGUCCUGUGCUACACAUCGUAUGUACCGAAUCGGGGAGGGGUUUGGGGUUUGGGGAAAGUAUUAUGUUACGCCGUUCGGAUCUGCACUUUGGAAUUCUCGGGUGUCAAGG,-0.248
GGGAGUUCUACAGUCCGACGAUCACCAUGAAGGUGGGCAUCUUUGGGAAGUGGGGCAAGGGGGGGAUAGGGAGGGGGGUAACACUUUGGGAACAGGUGGUCCCAGGUCGUUUCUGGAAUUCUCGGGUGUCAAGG,0.286
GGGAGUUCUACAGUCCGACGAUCUAACUUUAGAGGAGGAUCUGAAGGAUAUGGCAGUGGACGUGGAUUUGGGGAUGGCUAUAAUGGGUAUGGAGGAGGACCUGGAGGUGGCAAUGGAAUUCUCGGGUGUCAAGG,-0.231
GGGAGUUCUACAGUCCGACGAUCAAGUCCUGUGCUACACAUCGUAUGUACCGAAUCGGUUUUGGUUUUGGGGUUUUGGGAAAGUAUUAUGUUACGCCGUUCGGAUCUGCACUUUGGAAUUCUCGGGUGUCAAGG,-0.717
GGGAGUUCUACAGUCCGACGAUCUAACUUUAGAGGAGGAUCUGAUGGAUAUGGCAGUGGACGUGGAUUUGGGGAUGGCUAUAAUGGCUAUGGAGGAGGACCUGGAGGUGGCAAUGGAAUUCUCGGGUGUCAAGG,0.412
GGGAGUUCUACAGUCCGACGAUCCUGUGCUACACAUCGUAUGUACCGAAUCGGGGAAAAAAAGGGGUUUUUUUGGGGUUUGGGGAAAGUAUUAUGUUACGCCGUUCGGAUCUGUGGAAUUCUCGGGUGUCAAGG,-1.72
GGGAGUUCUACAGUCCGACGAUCUCUCUCUCUUUCCCUCUAGGGUCACAUCUCCCAGGAAGAUCUCACUUCCCCACAGAAGCUCUUGGCCUGGCCUCCUGCAGUGCCACGCUCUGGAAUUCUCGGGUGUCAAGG,0.75
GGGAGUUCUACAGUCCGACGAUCCACAGACAACACGCACCCACACAGACACCGAGGGAAGGGGUUGGGAUGGGGACAGGGUGCACAGCAGGGCGGGGUAGGACCCCAGCCCCUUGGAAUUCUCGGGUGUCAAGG,1.05

# Set 2
# Target: RING finger protein unkempt homolog, zinc fingers 1-6, GST-SBP tag (UNK, Homo sapiens, UniProt Q9C0B0, residues 30-357)
# Sequence of UniProt Q9C0B0 (30-357, looked up): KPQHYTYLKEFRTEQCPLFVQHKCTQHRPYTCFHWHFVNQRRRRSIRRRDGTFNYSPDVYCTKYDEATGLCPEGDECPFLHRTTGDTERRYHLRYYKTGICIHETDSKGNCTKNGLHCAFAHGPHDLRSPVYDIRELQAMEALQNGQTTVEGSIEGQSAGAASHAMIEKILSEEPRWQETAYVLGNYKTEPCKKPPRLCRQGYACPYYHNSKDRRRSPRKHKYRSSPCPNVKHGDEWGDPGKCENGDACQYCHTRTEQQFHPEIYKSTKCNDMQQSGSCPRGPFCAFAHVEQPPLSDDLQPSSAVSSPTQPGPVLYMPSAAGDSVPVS
# Method: RNA Bind-n-Seq
# Molecule type: RNA
# Sample: in vitro
# Concentration: not given
# Notes: RNA with constant flanks, ends assumed
# Reference: input RNA pool
# Reading: higher = stronger binding
Strand,bound/input enrichment [ratio]
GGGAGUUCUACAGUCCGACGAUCUAUCCAAAUCUAAACAUGAUUGAGACAUUCAUAUGUCAAGUGUGUGAGGAAACCCUUGCACACCGUGUGGAUUCCCUUGAGCAGCUGACUGGAAUAAGGAUGCUUAGACACCUCACUAUGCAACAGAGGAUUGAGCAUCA,0.316
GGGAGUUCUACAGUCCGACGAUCUAUUAUGGAAUACCAAAGUGAAGGGAUUUUGUCAUUCAGCAGACUGUUUCAUAUCCAGAACCGUUCUUCCCUUACCCUUUCAGUCAUAAUUAAAAACCUAAGCUUUCUGGUAAAGUAGGACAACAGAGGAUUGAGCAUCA,0.348
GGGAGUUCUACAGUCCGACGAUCUUGGAAUUAAUAAAGCAGUUGACAUUCACUGUUAGUUACAGCAACAUACUGUGAUUUUUAAUCCGACCGUAAUUCAGAUUUAUUACUCUAUGAAAUUCUGUCUUUUGACACCAUAGUGCCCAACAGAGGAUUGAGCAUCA,0.251
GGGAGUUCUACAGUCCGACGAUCGCAUGUUCUUAUGGACAUUAUGAAGUUGCAGAACUUCUUGUUAAACAUGGAGCAGCCGUUAAUGCCGCUGAUUUAUGGAAAUUUACACCUUUACAUGAAGCAGCAGCAAAAGGAAAAUAUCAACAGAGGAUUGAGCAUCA,0.103
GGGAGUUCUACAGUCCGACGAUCAAUCUUGGAAUGAGUUCUUCAUUGAAUCAACAAGGAGCUCAUAGUGCACUGUCUUCUGCCCGUACUUCUUCCCAUAAUUUGCAGUCUAUAUUUAACAUUGGAAGUAGAGGUCCACUCCCUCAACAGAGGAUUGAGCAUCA,0.414
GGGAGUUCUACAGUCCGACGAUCUGAAGAUCUGUACCUGUGCACAGUGAGCUUCAAAACAAAACACAAUUGAGCUUACGUUUGUCCGCAGGCGUAGAGUAUUCAUUACGUAAUGAAGUACUUAAGCAGCUACAGGGAAGUAUUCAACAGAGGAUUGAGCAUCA,0.162
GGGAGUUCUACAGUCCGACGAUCUUUGUGAAUUUCUCUGAGCAGAAGGAAAAGCUGAUAAAGCGGCAAGAGGAAUUGGACCGAGGCUACAAAUCAAUCAUGGAAUUGAUGAAUGUACUUGAACUUAGAAAAUAUGAAGCUAUUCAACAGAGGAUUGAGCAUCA,0.795
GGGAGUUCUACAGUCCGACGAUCCUAGGGAUUGGGCCAGGACCAGCAGACCUAAUUGACAAAGUCACUGGUCACCUAAAACUUUACCCGGUGGACUUUGAUAUGACAACAACCCCUCCAUCACAAGUGUUUGAAGCCUGUCAGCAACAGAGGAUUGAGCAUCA,0.153

# Set 3
# Target: RNA binding protein fox-1 homolog 2, RRM domain, GST-SBP tag (RBFOX2, Homo sapiens, UniProt O43251-10, residues 100-194)
# Method: RNA Bind-n-Seq
# Molecule type: RNA
# Sample: in vitro
# Concentration: 365 nM
# Notes: natural RNA segment, single round, ends assumed
# Reference: no-protein control
# Reading: higher = stronger binding
# Construct (chain): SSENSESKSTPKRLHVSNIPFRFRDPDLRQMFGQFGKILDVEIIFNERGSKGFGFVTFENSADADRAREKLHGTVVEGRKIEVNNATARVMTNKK
Strand,RBNS enrichment (R)
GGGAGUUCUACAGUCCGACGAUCUAUGCUCUUUGGGCUAAGAGGGGAUCAUCUCGCUUAAGAUGUACUCCUGAUGUAAACAUUUCCCCCACUUUCCAAAUAAUGGUAAAGAAAACAGUGGCAAGGGCUGUUCUUGGAAUUCUCGGGUGCCAA,0.774
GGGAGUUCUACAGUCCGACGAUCGCAGAAUCCGAUGUGACCCACCAUUAGGGAGUCUGCAUCUUGGAAGAGUUGGAAAUAACCCUUUAACAUCAACAUGCUUCAAAGACUUUUUGCCUUUGGCCUAGUAAGAUUGGAAUUCUCGGGUGCCAA,0.404
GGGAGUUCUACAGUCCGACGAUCGCCCUGGGGUCAAGGGAAAGGAACUCUGUUAUCUUCUCAGAAUAAAUAUUACUGCCGCUCUAGAGGGUCUGUCUGUUUCAUUUUUCCCGUACCCCGCACCCCCCCACACAUGGAAUUCUCGGGUGCCAA,0.7
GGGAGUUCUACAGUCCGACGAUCGUAGGGCCCAACAGGGACAGGAGACUUGAGGACACCUGUCAUCAGCACUGGUGUCUAUUCCACAAGACAGAUGUCUGCCCUGCCACUCCCUUCCGUCCGUCCCUGUCCGUUGGAAUUCUCGGGUGCCAA,0.25
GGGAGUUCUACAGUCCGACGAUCGAGGGUGCUGGAAGGGGUUGGUGGUGAUUGUGGGUGUCUAAACUGGAAUUCUUUUGUCCAUGUUAAAAAGACUUGAAAACUGAAACGUCACGGUACAGUGUUAAUUCACGUGGAAUUCUCGGGUGCCAA,0.943
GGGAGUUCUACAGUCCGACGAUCGGGCUGGUAUUUAUCUGCAAGGUUGAAGUCACUGGGAUUCUUUUCCUUUCACCUAGAUAGUCCUUGGAAAGUGUGUGAGAGAGAAGUGGGCAGGAGACAGACUGGGGACUUGGAAUUCUCGGGUGCCAA,0.634
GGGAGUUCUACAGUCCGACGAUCUAAUGUAACUAAGCAUCUCCACUAUGGUGUGUGCCUUUUAUAAAGGAAAAGAGAGAAAAAGGCAAAGCAAGGUUGUGGCCUUAGGUUGGACCUGGAAUAUCCCUUAUUGCUGGAAUUCUCGGGUGCCAA,1.24
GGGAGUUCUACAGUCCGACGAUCCCACAGCAAAGGUAUUGUGGAUGACCCUUAGAAUCCAUUCUCUGGUCUUCUGAAAUACCAAGGGCAGAUGUCACCUCCUUCCUCAGCAGGACUGACUCUGGGCUCUACAAUGGAAUUCUCGGGUGCCAA,0.291

# Set 4
# Target: Histone acetyltransferase KAT6A, winged helix 2, GST fusion (KAT6A, Homo sapiens, UniProt Q92794, residues 85-181)
# Method: protein binding microarray
# Molecule type: double-stranded DNA, one strand shown
# Sample: in vitro
# Concentration: not given
# Notes: 8-mer, flanks averaged, mean of 2 arrays, mostly near background
# Reference: not given
# Reading: higher = stronger binding
# Construct (chain): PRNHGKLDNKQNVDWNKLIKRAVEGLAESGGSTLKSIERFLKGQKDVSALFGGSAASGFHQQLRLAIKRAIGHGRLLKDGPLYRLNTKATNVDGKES
Strand,E-score
AAGAACAT,0.0684
AACAGTGC,-0.0783
GGCCCCGA,0.12
CTTCAAGA,0.0154
AACACGCA,-0.0573
CGGGACCG,0.246
AACTACAA,0.114
TCACGAAA,0.0732
AGAACAAC,-0.0639
CGTCGATA,-0.103
AATACTAT,-0.0304
CGTAACTA,-0.0861
ACGGGGCA,-0.0343
GATCAGAC,-0.172
ATTCTATG,-0.0205
CCTAGTAC,-0.0314
CTGCTCCA,0.191
ACTCGCAA,0.0895
CGAAATCC,0.142
CTACTACA,-0.0427
CCTTTTGC,0.0829
GAAGAACC,0.014
CACCTCTA,-0.0133
TAGACGAA,-0.0501

# Excerpt of the above (set 4):
Strand,E-score
ATTCTATG,-0.0205
TCACGAAA,0.0732
CACCTCTA,-0.0133
AACAGTGC,-0.0783
CGTAACTA,-0.0861
